{"data": "Experimental data gathered from unrelated publications", "note": "A part holds a random share of what one study measured. Positions count from the first letter of the parent shown."}
{"data": "Set 1", "target": "RNA binding protein fox-1 homolog 2, RRM domain, GST-SBP tag (RBFOX2, Homo sapiens, UniProt O43251-10, residues 100-194)", "technique": "RNA Bind-n-Seq", "form": "RNA", "sample": "in vitro", "concentration": "365 nM", "setting": "natural RNA segment, single round, ends assumed", "reference": "no-protein control", "direction": "higher = stronger binding", "all sequences stand within": "GGGAGUUCUACAGUCCGACGAUC … UGGAAUUCUCGGGUGCCAA", "Residues (chain)": "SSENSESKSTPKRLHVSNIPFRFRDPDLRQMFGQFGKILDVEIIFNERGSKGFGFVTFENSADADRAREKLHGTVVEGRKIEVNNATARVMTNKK"}
{"Sequence": "GUGUGGCACCCAGUUUUUCCAUGUAGGUCAUUAUACCUGGAUGAUAACAUCAAUUUAGUUACAAUGCAUGUAGUUUGCACAAUGAUUAAAAUGAAUAGGUUUGUGUUUAU", "RBNS enrichment (R)": 1.58}
{"Sequence": "AAAUGCAUUUGAUUAUCCUGAUUUACCAGUUGUGAGAGGCAAGAAAUUUGUUGAGUCUGUAUAUAAAACUUGAAAAUUUGUAGAAAAAAUAAGGAAAAUGAUACUGCUGG", "RBNS enrichment (R)": 1.03}
{"Sequence": "GUAUAUUUAUUUUUAUGUAUGUUACUAUGUAAAUAUGGUUUGCAGUUGUUUUUGUGUGGAAUCUUGUCUUUCCGUAUAAGUUGUAAGCUCCUUGAGAGCAGGAUCCAUGU", "RBNS enrichment (R)": 0.559}
{"Sequence": "AGUUAUUUAUUUGUUAACGCUGGCUGUGGAAACCCCAGUUCUUGGGGGGAGAAACAGGACUUUUUACAUAAAAUAGGAGCUGCAAAAGCAAAAAGAAUAUCUUCUAAAGA", "RBNS enrichment (R)": 0.471}
{"Sequence": "UGGGUGCCGUAUGUGUAUGCGGCAGUGUUGUCAGGCGAUCUUGUUUGAAGCUCUAUGUUGCCAUAAUUACCAUCAAGUACACACUGUUGGCAAAAGGCUAACACCUGACU", "RBNS enrichment (R)": 0.47}
{"Sequence": "GAUGGCGCCCAGCCCAGCCCUAACUGCCAGCUGGCUGGGGUUGCGCCCCACUGCGCUGCUGACCUUCCUGCAGUUCCAGACACCUCCCACAAUAAAGAGCUCCUCCUCUG", "RBNS enrichment (R)": 0.807}
{"Sequence": "AUCCCUUCAAGCUGGUUGAAGAGAGUAGGCAGGGGCGGGGCCCCGAGGUGCUUCAACCCCACCUACUCUGCCUUCCACCUCUCCCCAACCAUCACUGUAAUUUAUGGCCC", "RBNS enrichment (R)": 0.358}
{"Sequence": "AAGCAAAUCCCAUUUCUUGAAAAGCCUUGGAGAACUCGGUUUGGUAGACUUGGACAUCUCUCUGGCUUCUGAAGAGCCUGAAGCUGGCCUGGACCAUUCCUGUCCCUUUG", "RBNS enrichment (R)": 0.251}
{"Sequence": "AGCAAUUGUGGGUUUUGAGCUCCAUAUACUCUUAGCAAGUAAGGGGGCGUCUUGCCCCUAUAUAUCAUCUUCCCGGAUUCCACUCCCUGUUGUGGGAAUCGCGCCCACCC", "RBNS enrichment (R)": 0.453}
{"Sequence": "AGAAGCCUCUGCACCUACUGUGCAGAACUCUCCACUUCCCCAACCCUCCCCAGGUGGGCAGGGCGGAGGGAGCCUCAGCCUCCUUAGACUGACCCCUCAGGCCCCUAGGC", "RBNS enrichment (R)": 0.266}
{"Sequence": "AGCAAGGAGCAGGUAAGUGAGCAGUUAUGGACAGCACUUUCCAUGUGGUGCUUCCGACCCUGGCUGUCAGAGUGAAAUGUAAAGUCAGGGCUCUGUACAGUUUUGCCAUU", "RBNS enrichment (R)": 3.23}
{"Sequence": "CCGCAGCUCCAUUUUCUUAUUGCGCUGCUACCGUUGACUUCCAGGCACGGUUUGGAAAUAUUCACAUCGCUUCUGUGUAUCUCUUUCACAUUGUUUGCUGCUAUUGGAGG", "RBNS enrichment (R)": 0.324}
{"data": "Set 2", "target": "Histone acetyltransferase KAT6A, winged helix 2, GST fusion (KAT6A, Homo sapiens, UniProt Q92794, residues 85-181)", "technique": "protein binding microarray", "form": "double-stranded DNA, one strand shown", "sample": "in vitro", "concentration": "not given", "setting": "8-mer, flanks averaged, mean of 2 arrays, mostly near background", "reference": "not given", "direction": "higher = stronger binding", "Residues (chain)": "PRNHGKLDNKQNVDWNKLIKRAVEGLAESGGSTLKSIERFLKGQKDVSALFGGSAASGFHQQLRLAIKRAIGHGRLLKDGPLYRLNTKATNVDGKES"}
{"Sequence": "AAAGGTCG", "E-score": -0.159}
{"Sequence": "CCGAAACG", "E-score": 0.173}
{"Sequence": "AGTGCGGA", "E-score": 0.298}
{"Sequence": "GAAAATGA", "E-score": -0.0541}
{"Sequence": "AAGAATAC", "E-score": 0.0248}
{"Sequence": "CGACAAAC", "E-score": 0.0563}
{"Sequence": "AACAGGGG", "E-score": 0.0778}
{"Sequence": "AATCCACG", "E-score": 0.0635}
{"Sequence": "GATCGGGC", "E-score": 0.115}
{"Sequence": "ACCCAGGG", "E-score": 0.0209}
{"Sequence": "CTATAGAC", "E-score": -0.189}
{"Sequence": "AAGTGATC", "E-score": -0.083}
{"Sequence": "ACCAACGT", "E-score": -0.196}
{"Sequence": "AGACATGG", "E-score": -0.102}
{"Sequence": "CCGACAGC", "E-score": 0.0546}
{"Sequence": "CCAAACCG", "E-score": 0.133}
{"data": "Set 3", "target": "ABI1, truncated, D143A, DHFR fusion (Arabidopsis thaliana)", "technique": "DHFR PCA, deep sequencing", "sample": "yeast", "setting": "methotrexate growth selection, single substitutions", "together with": "(+)-ABA 0.0091 µM", "reference": "wild-type fitted maximum", "direction": "higher = stronger binding", "parent": "PYL1, truncated, DHFR fusion (Arabidopsis thaliana); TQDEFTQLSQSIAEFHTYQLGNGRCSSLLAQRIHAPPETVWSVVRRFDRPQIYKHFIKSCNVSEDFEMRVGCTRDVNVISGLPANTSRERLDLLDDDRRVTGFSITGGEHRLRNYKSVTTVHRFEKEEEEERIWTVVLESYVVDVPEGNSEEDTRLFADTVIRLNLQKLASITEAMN; partner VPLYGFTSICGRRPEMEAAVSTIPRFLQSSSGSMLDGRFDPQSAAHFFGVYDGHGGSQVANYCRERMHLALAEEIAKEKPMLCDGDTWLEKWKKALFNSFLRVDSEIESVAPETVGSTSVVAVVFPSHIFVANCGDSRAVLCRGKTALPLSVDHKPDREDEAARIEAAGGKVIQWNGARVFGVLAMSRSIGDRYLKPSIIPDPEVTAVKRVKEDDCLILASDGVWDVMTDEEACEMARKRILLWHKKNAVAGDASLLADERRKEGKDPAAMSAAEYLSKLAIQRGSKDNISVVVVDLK"}
{"Variant": "E67K", "relative binding score [%]": 23.5}
{"Variant": "V70Y", "relative binding score [%]": -5.19}
{"Variant": "R163G", "relative binding score [%]": 6.81}
{"Variant": "T1W", "relative binding score [%]": 22.9}
{"Variant": "R69V", "relative binding score [%]": 35.7}
{"Variant": "C25H", "relative binding score [%]": 4.35}
{"Variant": "A170F", "relative binding score [%]": -15.7}
{"Variant": "R46C", "relative binding score [%]": 3.54}
{"Variant": "R45Y", "relative binding score [%]": -3.53}
{"Variant": "P83R", "relative binding score [%]": 16.4}
{"Variant": "F15A", "relative binding score [%]": 4.83}
{"Variant": "L28R", "relative binding score [%]": 4.31}
{"data": "Set 4", "target": "Sal-like protein 4, full length isoform B (SALL4, Homo sapiens, UniProt Q9UJQ4-2, residues 1-616)", "technique": "universal PBM", "form": "double-stranded DNA, one strand shown", "sample": "in vitro", "concentration": "not given", "setting": "8-mer, flanks averaged, mean of replicates", "direction": "higher = stronger binding", "Residues (chain)": "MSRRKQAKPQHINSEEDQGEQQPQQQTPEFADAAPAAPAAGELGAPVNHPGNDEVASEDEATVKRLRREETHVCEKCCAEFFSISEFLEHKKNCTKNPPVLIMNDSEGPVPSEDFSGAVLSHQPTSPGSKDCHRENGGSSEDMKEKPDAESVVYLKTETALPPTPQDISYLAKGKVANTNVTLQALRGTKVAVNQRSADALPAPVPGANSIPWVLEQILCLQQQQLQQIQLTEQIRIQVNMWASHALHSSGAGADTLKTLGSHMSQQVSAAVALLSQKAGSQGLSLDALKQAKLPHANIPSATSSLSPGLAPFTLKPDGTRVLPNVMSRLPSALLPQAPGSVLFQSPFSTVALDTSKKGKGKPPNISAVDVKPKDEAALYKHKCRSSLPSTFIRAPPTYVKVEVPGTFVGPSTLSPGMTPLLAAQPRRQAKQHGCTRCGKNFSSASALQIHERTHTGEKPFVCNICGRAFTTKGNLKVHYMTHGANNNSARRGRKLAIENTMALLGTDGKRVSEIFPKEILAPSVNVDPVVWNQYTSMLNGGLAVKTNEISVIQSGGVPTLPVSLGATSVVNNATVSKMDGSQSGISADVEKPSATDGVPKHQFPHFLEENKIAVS"}
{"Sequence": "ACGATGCC", "E-score": -0.261}
{"Sequence": "GAGCTGGC", "E-score": -0.296}
{"Sequence": "CGTACGAG", "E-score": -0.0912}
{"Sequence": "CTTTTTAA", "E-score": 0.265}
{"Sequence": "GACACTGC", "E-score": -0.128}
{"Sequence": "GCGAAACC", "E-score": -0.131}
{"Sequence": "GGAATCGA", "E-score": -0.162}
{"Sequence": "GCCAACGA", "E-score": -0.138}
{"Sequence": "CTCTCATC", "E-score": -0.0598}
{"Sequence": "CGTATGGC", "E-score": 0.12}
{"Sequence": "ACGTTGTA", "E-score": 0.135}
{"Sequence": "AACGGAGC", "E-score": -0.225}
{"Sequence": "TGGTTAAA", "E-score": 0.223}
{"Sequence": "GACGACGC", "E-score": -0.182}
{"Sequence": "CCCAAACG", "E-score": -0.163}
{"Sequence": "ACTCTTTA", "E-score": 0.16}
{"Sequence": "ACGGATTG", "E-score": -0.149}
{"Sequence": "CGAATCTC", "E-score": -0.127}
{"Sequence": "CCTTGGCG", "E-score": -0.392}
{"Sequence": "ACATAAAA", "E-score": 0.297}
{"Sequence": "GTGCAATA", "E-score": 0.259}
{"Sequence": "GTGGCAAA", "E-score": -0.0402}
{"Sequence": "CCCAAAAC", "E-score": 0.137}
{"note": "Repeated from above (set 4):"}
{"Sequence": "CGAATCTC", "E-score": -0.127}
{"Sequence": "CCTTGGCG", "E-score": -0.392}
{"Sequence": "ACATAAAA", "E-score": 0.297}
{"Sequence": "GTGCAATA", "E-score": 0.259}
{"Sequence": "GTGGCAAA", "E-score": -0.0402}
